Published values from different studies.
Numbered parts are unrelated; each lists some results of a single study.

Block 1
Target: Ras GTPase-activating protein-binding protein 1, C-terminal RGG region (G3BP1, Homo sapiens, UniProt Q13283)
UniProt Q13283, sequence (whole entry, looked up): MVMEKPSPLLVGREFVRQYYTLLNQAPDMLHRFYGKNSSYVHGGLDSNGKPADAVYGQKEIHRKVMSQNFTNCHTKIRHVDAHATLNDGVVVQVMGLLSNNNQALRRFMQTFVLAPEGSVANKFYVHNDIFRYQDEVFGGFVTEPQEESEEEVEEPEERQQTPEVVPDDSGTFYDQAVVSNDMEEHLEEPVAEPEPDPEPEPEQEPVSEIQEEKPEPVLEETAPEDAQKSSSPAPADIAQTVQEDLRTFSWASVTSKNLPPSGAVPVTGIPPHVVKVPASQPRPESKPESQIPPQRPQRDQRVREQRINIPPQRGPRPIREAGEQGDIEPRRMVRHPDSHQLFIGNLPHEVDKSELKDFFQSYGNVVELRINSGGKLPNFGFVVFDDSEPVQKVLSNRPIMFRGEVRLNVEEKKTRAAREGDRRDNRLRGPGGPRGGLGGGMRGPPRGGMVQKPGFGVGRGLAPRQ
Technique: RNA Bind-n-Seq
Form: RNA
Matrix: in vitro
Concentration: 1 µM
Setting: whole 134-nt RNA, ends assumed
Together with: 150 mM KCl
Relative to: input library
Reading: higher = stronger binding
Strand	log2 enrichment
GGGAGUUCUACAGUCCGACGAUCUCCUGUGCUACACAUCGUAUGUACCGAAUCGGGCCCCCCGGGGCCCCCCGGGCCCCCCGGAAAGUAUUAUGUUACGCCGUUCGGAUCUGCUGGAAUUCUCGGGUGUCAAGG	-0.939
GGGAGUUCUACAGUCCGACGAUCCCUGUGCUACACAUCGUAUGUACCGAAUCGGGGAAAAAAAGGGGUUUUUGGGGAAAGGGGAAAGUAUUAUGUUACGCCGUUCGGAUCUGCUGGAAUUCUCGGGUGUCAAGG	0.839
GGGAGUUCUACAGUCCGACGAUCCUCAAGUCCUGUGCUACACAUCGUAUGUACCGAAUCGGGGAAGGAAGGGAAGGGAAAGUAUUAUGUUACGCCGUUCGGAUCUGCACUUCCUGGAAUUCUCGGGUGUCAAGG	-0.879
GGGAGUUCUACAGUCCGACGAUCACCAUGCAGGUGGGCAUCUUUGGGAAGUGGGGCAAGGGGGGGAUAGGGAGGGGGGUAAGACUUUGGGAACAGGUGGUCCCAGGUCGUUUCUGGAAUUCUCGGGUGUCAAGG	2.3
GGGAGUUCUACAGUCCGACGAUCUCAAGUCCUGUGCUACACAUCGUAUGUACCGAAUCGGGUGGGUUUUUGGGAGGGAAAGUAUUAUGUUACGCCGUUCGGAUCUGCACUUCCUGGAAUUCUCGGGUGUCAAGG	1.02
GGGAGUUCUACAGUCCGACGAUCCUCAAGUCCUGUGCUACACAUCGUAUGUACCGAAUCGGGUUGGGUUGGGGUUGGAAAGUAUUAUGUUACGCCGUUCGGAUCUGCACUUCCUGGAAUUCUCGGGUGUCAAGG	0.00258
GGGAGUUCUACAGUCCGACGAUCAAGUCCUGUGCUACACAUCGUAUGUACCGAAUCGGGUUUUGGUUUUGGGGUUUUGGAAAGUAUUAUGUUACGCCGUUCGGAUCUGCACUUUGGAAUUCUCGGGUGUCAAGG	-1.33
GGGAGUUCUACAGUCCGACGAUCACCAUGCAGGUGGGCAUCUUUGGGAAGUGGGGCAAGGGGGGGAUAGGGAGGGGGGUAACACUUUGGGAGCAGGUGGUCCCAGGUCGUUUCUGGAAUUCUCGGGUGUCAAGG	2.19
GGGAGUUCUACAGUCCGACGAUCACCAUGCAGGUGGGCAUCUUUGGUAAGUGGGGCAAGGGGGGGAUAGGGAGGGGGGUAACACUUUGGGAACAGGUGGUCCCAGGUCGUUUCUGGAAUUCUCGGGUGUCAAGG	-1.17
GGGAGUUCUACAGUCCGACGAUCCAAGUCCUGUGCUACACAUCGUAUGUACCGAAUCGGGGCCCGGGCCCGGGCCCGGAAAGUAUUAUGUUACGCCGUUCGGAUCUGCACUUCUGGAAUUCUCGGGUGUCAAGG	-2.26

Block 2
Target: Interferon regulatory factor 3, full length, phosphomimetic (IRF3, Homo sapiens, UniProt Q14653, residues 1-427, S386D/S396D/S398D/S402D/T404D/S405D)
Technique: protein-binding microarray
Form: double-stranded DNA, one strand shown
Matrix: in vitro
Concentration: 2540 nM top
Setting: 60-bp whole probe
Together with: salmon DNA 0.4 mg/ml
Relative to: random background probes
Reading: higher = stronger binding
Shared flanks, not repeated: GCCTAGCAC … GTCTTGATTCGCTTGACGCTGCTG
Target sequence (chain): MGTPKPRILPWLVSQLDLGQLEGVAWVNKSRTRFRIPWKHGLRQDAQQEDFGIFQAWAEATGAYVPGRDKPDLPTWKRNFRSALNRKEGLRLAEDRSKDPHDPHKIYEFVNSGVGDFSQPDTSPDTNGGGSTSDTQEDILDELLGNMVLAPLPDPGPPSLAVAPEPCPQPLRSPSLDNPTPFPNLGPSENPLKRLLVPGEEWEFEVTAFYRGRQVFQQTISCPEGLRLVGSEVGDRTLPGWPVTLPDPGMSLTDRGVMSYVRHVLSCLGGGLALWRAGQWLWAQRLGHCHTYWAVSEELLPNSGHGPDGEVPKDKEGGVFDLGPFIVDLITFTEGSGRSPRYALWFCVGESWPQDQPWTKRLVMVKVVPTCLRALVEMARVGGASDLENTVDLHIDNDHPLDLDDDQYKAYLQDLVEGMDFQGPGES
Strand	fitted relative affinity
TTAGATATCAGTATCGTTTAGTGCTAG	2.21 z-score
TTAGTACTGCTTCTCCTTTAGTGCTAG	0.492 z-score
ACCCGAGTCCCTATCTCCTCGTGCTAG	0.545 z-score
GACGGTCTTGGACTGGGGACGTGCTAG	-0.51 z-score
CTCTGCTTGGGTCTGGGTATGTGCTAG	-0.543 z-score
GACGGTATCGGACTGGTGACGTGCTAG	1.61 z-score
GACGATTTCGGTTTCGGGACGTGCTAG	7.22 z-score
GATTGGTTGAACATGAACTTGTGCTAG	-0.274 z-score
TTAGAACGGAGTCTCGATTAGTGCTAG	-0.116 z-score
GACGGTTTCGTACTGGGGACGTGCTAG	4.19 z-score
TAAGGTATCGGACTGGGTTAGTGCTAG	1.08 z-score
GACGGACTGGGACTGGTGACGTGCTAG	-0.774 z-score
GACGGTTCACTTTTCCTGACGTGCTAG	2.49 z-score
TTAGAACTGAGTTTCCATTAGTGCTAG	2.76 z-score
CACGATATCGGGTTTCGAGACGTGCTA	1.01 z-score
TTAGGTTTCTTTCTCCTTTAGTGCTAG	5.04 z-score
ATAGGACTGGACACTGGGTTAGTGCTA	-0.626 z-score
GACGATTCCAGTTTCGAGATGTGCTAG	3.31 z-score
TTAGGTACCGACTTTCGGTTAGTGCTA	2.73 z-score
GACGAACTGAGTCTCGAGCCGTGCTAG	-0.398 z-score
GACGAACTGAGACTCGAGACGTGCTAG	-0.367 z-score
TTAGATTTCACTTCCGATTAGTGCTAG	3.98 z-score
GACGAACGGAGTCTCGAGACGTGCTAG	-0.342 z-score
AGGGTCATCCATCTGAACCAGTGCTAG	-0.165 z-score
ATTGTTTTCAGTTTCACTGCGTGCTAG	4.2 z-score

Block 3
Target: Histone acetyltransferase KAT6A, winged helix 1, GST fusion (KAT6A, Homo sapiens, UniProt Q92794, residues 1-85)
Technique: protein binding microarray
Form: double-stranded DNA, one strand shown
Matrix: in vitro
Concentration: not given
Setting: 8-mer, flanks averaged, mean of 2 arrays, mostly near background
Relative to: not given
Reading: higher = stronger binding
Target sequence (chain): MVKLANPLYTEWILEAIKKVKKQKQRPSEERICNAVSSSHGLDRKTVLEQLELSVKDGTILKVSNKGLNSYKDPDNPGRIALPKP
Strand	E-score
CCCATTTA	-0.197
GTACGCCA	0.0955
TCTAATAA	-0.0657
GCGCTACC	0.361
CTGCTAAC	-0.171
GATCTTAC	0.0434
CCCCAGGC	-0.114
CCCCTTGA	-0.0866
AGGTGTTG	-0.061
ATAAATTG	-0.155
TACAGTGA	-0.185
CAATCGGC	0.162
CTTTATTA	-0.0911
ACTGACCC	-0.023
AACAAATT	-0.0261
AAACGACC	-0.0505
TCCGGACA	0.0267
TCGCCTCA	-0.0535
ATCCACTA	-0.24
ACATCCCA	-0.2
ATGGAATA	-0.141
CGGCCGGC	0.457
TGGGAACA	-0.225
CTCGGGCA	0.0688
ACGGGAGA	0.09

Block 4
Target: RNA binding protein fox-1 homolog 2, RRM domain, GST-SBP tag (RBFOX2, Homo sapiens, UniProt O43251-10, residues 100-194)
Technique: RNA Bind-n-Seq
Form: RNA
Matrix: in vitro
Concentration: 365 nM
Setting: natural RNA segment, single round, ends assumed
Relative to: no-protein control
Reading: higher = stronger binding
Strand	RBNS enrichment (R)
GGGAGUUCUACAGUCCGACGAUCCCUAAUAUAUCCAAAUCCAACUGAAUACCAAAUUGAGAUGGCAAAUUUUUGUUUGAUAUAAGUUAGCUUGUUAGCAUAUGCCCUAGAGGGCCUCCAUCCCUGUAUUCUAAUGGAAUUCUCGGGUGCCAA	0.559
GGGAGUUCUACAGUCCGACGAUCCUAAAUCUGCUGUGCAGGUUGGGCUGGUCAUACUGUCAUGAUUUCAUUAACAGCCUGGGUGAACAUGGCUGGGAGUAAAGGGCUUGCUCUCCUGCAUGUUGACAUGACGGUGGAAUUCUCGGGUGCCAA	6.41
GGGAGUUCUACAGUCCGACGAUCUUUUAAUAAGCUAUUUCAAUUUGUUUGUUAUAUUAAGUUGACUUUAUCAAAUACACAAAGAUUUUUUUGCAUAUGUUUCCUUCGUUUAAAACCAGUUUCAUAAUUGGUUGUGGAAUUCUCGGGUGCCAA	0.518
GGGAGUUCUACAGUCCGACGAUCACACCCGAUUCCUGCCCAAACAGCUGUAUUUAUAUAAGUCUGUUAUUUAUUAUUAAUUUAUUGGGGUGACCUUCUUGGGGACUCGGGGGCUGGUCUGAUGGAACUGUGUAUGGAAUUCUCGGGUGCCAA	0.438
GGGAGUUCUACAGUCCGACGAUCCAAAAACCCAGUGCAGCUGAUGAUGCAAAGCAGUCUCUCUCUGUGUACAGUGCCCCACCUAUUUAAAAAUCACGUACUUGCCCAGAACACUGUGAAACACUUAACAUAAGUGGAAUUCUCGGGUGCCAA	0.42
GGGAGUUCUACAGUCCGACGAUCUGCAGGUCAGGGAAGGUUCUGGUGCUUUUCGUUUGAUCCAAAAGGAGCUGAGAGCCAGAAAUGUGGCUGUGAUUGCGAAAGAGACGGAGUUUGGGAGACCCAUGGAAGAAUGGAAUUCUCGGGUGCCAA	1.09
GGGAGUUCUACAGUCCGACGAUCGUUCCUACCCUUGCUGAACAGCACAAGAUGGGUGGGUCGGGGGCUAUCAAGGCCACUGUGGUAGUGCUUCCCUGAGCAUUCAAUCCCUGGAUCCUGUAGGCCCUGGGAGGUGGAAUUCUCGGGUGCCAA	0.502
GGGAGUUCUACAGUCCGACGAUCACGAAUCUGCCCACGGUAGUCAGGUCCCCUGAGCUCUGGACUGGAAGUGGAACUGUGUUCCUGCCAGCCUCUGUAAUGACUGAAGAAAUACAGGGUUUUGAAAACAUGAAUGGAAUUCUCGGGUGCCAA	0.969
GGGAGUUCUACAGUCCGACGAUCUAACAUUGAAUACCAGGCUACAUGUGCCCCCGGGUUCCUUCCUAGAAAUGUGGCAGCCCAUUCCAGCACACAGGCUUCUGCAGCAAUCUCUGAGGGUAAAGCCGGUGGGAUGGAAUUCUCGGGUGCCAA	0.384
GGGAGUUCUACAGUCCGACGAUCUUUACUCAAACUCUGUUGGGGCAUUUUACUAACCUUGUUCCCUUUUUGGCCUGUAAGACACUUUAGAGAUUCCUAACAGAGUUUACUGUUGUUUAGAAAUUUGCAAGGGCUGGAAUUCUCGGGUGCCAA	0.601
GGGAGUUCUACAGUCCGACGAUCUUUAAUUCAUCCUCAGUGACUCUGGCAAGGCUGCUUCUCUAUCACUGGCUUUGCACAGAAGUAUGCUCUACUUGCGUUGCUUUAGGGCAGGAUUCUAUUUUGAGGGAAAAUGGAAUUCUCGGGUGCCAA	0.518
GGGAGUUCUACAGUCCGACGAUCUAGGACCAGAGCGGUAUCUCUGGCACCACACUAGGGACUAUCAGGUAAUAAAAGCUUUGACUCCCUGAGGAAAUGUCUCUCCCUUUGUCUGGGGGUGGGGCAGCCAUACAUGGAAUUCUCGGGUGCCAA	0.47

A few entries again (block 1):
Strand	log2 enrichment
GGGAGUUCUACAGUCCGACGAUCACCAUGCAGGUGGGCAUCUUUGGGAAGUGGGGCAAGGGGGGGAUAGGGAGGGGGGUAACACUUUGGGAGCAGGUGGUCCCAGGUCGUUUCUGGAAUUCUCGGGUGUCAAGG	2.19
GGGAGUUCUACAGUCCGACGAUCUCAAGUCCUGUGCUACACAUCGUAUGUACCGAAUCGGGUGGGUUUUUGGGAGGGAAAGUAUUAUGUUACGCCGUUCGGAUCUGCACUUCCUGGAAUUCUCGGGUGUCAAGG	1.02
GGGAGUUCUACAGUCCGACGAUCCAAGUCCUGUGCUACACAUCGUAUGUACCGAAUCGGGGCCCGGGCCCGGGCCCGGAAAGUAUUAUGUUACGCCGUUCGGAUCUGCACUUCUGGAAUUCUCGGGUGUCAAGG	-2.26
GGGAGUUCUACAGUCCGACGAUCCUCAAGUCCUGUGCUACACAUCGUAUGUACCGAAUCGGGGAAGGAAGGGAAGGGAAAGUAUUAUGUUACGCCGUUCGGAUCUGCACUUCCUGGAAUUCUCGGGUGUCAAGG	-0.879
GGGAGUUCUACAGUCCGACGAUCCCUGUGCUACACAUCGUAUGUACCGAAUCGGGGAAAAAAAGGGGUUUUUGGGGAAAGGGGAAAGUAUUAUGUUACGCCGUUCGGAUCUGCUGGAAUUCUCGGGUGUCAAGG	0.839
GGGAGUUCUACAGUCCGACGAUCAAGUCCUGUGCUACACAUCGUAUGUACCGAAUCGGGUUUUGGUUUUGGGGUUUUGGAAAGUAUUAUGUUACGCCGUUCGGAUCUGCACUUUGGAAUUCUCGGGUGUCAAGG	-1.33
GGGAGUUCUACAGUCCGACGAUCACCAUGCAGGUGGGCAUCUUUGGUAAGUGGGGCAAGGGGGGGAUAGGGAGGGGGGUAACACUUUGGGAACAGGUGGUCCCAGGUCGUUUCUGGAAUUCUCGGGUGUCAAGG	-1.17
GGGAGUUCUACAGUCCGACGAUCACCAUGCAGGUGGGCAUCUUUGGGAAGUGGGGCAAGGGGGGGAUAGGGAGGGGGGUAAGACUUUGGGAACAGGUGGUCCCAGGUCGUUUCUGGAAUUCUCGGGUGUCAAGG	2.3
